Measurements gathered from unrelated publications.
Lines come from different studies, so protocols differ. Numbers after ± are the reported error. ≈ marks a conversion by molar mass, not a printed value.
cyp121: Mycocyclosin synthase (cyp121, Mycobacterium tuberculosis, UniProt P9WPP7)

Sequences of proteins named here, by UniProt entry; tags and fusion partners are left off.
UniProt P9WPP7, whole entry: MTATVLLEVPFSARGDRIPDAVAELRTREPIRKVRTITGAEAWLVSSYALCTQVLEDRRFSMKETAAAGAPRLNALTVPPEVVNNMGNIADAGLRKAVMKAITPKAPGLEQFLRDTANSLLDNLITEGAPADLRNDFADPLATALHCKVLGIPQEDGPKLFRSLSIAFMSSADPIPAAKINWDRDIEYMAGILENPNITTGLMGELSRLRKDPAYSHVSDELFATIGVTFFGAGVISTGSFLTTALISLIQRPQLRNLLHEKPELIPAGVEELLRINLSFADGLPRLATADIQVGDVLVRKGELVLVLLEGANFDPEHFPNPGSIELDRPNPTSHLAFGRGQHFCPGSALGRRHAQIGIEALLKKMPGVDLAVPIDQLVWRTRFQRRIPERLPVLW

With `Nc1ccc2ccc(CCNCCCc3cccc(F)c3)cc2n1` the selectivity ratio was 5 to 6 fold (Bacillus subtilis NOS; baseline: KS I218V over KS wild type).
Under 64Cu efflux, `CC(C)C[C@@H]1NC(=O)[C@H](CCC(=O)O)NC(=O)[C@@H]2CSSC[C@@H]3NC(=O)[C@H](C)NC(=O)[C@@H]4CCCN4C(=O)[C@H](CC(N)=O)NC(=O)[C@H](CSSC[C@H](NC(=O)[C@H](Cc4ccc(O)cc4)NC(=O)[C@H](CC(N)=O)NC(=O)[C@H](CO)NC(=O)[C@H](CO)NC(=O)CN4CCN(CC(=O)O)CCN(CC(=O)O)CCN(CC(=O)O)CC4)C(=O)N2)NC(=O)[C@H](CSSC[C@@H](C(=O)N[C@@H](Cc2ccccc2)C(=O)O)NC(=O)CNC(=O)[C@H]([C@@H](C)O)NC3=O)NC1=O` [copper-64 labelled] is recorded as “no effect” (T84; 1 h loading, pH 5.5, 37 °C).
`CN1CC[C@]23c4c5ccc(O)c4O[C@H]2c2ncc(-c4ccc(Cl)cc4)cc2C[C@@]3(OCCCc2ccccc2)[C@H]1C5` — result for “time to zero efficacy increase”: 136% (CD-1 mouse, chemotherapy-induced neuropathy; 10 mg/kg; baseline: morphine 10 mg/kg).
Under “MIC of ampicillin”, `O=S(=O)(O)c1ccc(-c2ccc(S(=O)(=O)O)cc2)cc1` is recorded as 512 µg/mL (Escherichia coli; bacterial growth, broth microdilution; expressing OXA-48; 16 µg/mL, together with: ampicillin; MIC of ampicillin).
`NC[C@@H](NC[C@@H]1CCCN1C[C@@H](CO)NC[C@@H](NCCC1CC2CCC1C2)c1ccccc1)c1ccccc1` (stereo partly drawn) has an IC50 of over 24 µM (Acinetobacter baumannii; bacterial growth; compound alone).
Under “MIC of ampicillin”, `O=S(=O)(O)c1ccc2c(c1)Cc1cc(S(=O)(=O)O)ccc1-2` is recorded as 256 µg/mL (Escherichia coli; bacterial growth, broth microdilution; expressing OXA-48; 4 µg/mL, together with: ampicillin; MIC of ampicillin).
The MIC50 of `Cc1cc(=O)oc2cc(OCCCCn3cc(COc4ccc(N5C(N)=NC(N)=NC56CCCCC6)cc4)nn3)ccc12` is reported as 3.2 µM (Mycobacterium bovis; BCG Tac^r10.2, thyA W98R missense; TA-C-resistant thyA mutant).
`NC[C@@H](NC[C@@H]1CCCN1C[C@@H](CO)NC[C@@H](NCCC12CC3CC(CC(C3)C1)C2)c1ccccc1)c1ccccc1`: “potentiation of amikacin” 1.9 fold (Acinetobacter baumannii; bacterial growth; 8 µM, fold shift of IC50, together with: amikacin).
`CO[C@H]1[C@H](O[C@H]([C@H]2O[C@@H](n3ccc(=O)[nH]c3=O)[C@H](O)[C@@H]2O)[C@H](NCCCNC(=O)[C@@H](NC(=O)[C@@H](NC(=O)N[C@H](C(=O)O)C(C)C)[C@@H]2CCNC(=N)N2)[C@@H](OC(=O)CCCCCCCCCCCCN(O)C(=N)N)C(C)C)C(N)=O)O[C@H](CN)[C@H]1O` has an MIC50 of over 35 µg/mL (Candida glabrata; alamar blue; DSY565).
`Cc1ccc(-c2csc(NP(=O)(O)OCC3OC(n4c[n+](Cc5ccccc5)c5c(=O)[nH]c(NC(=O)c6ccccc6)nc54)C4OC(C)(C)OC34)n2)cc1` (stereo not drawn) has an IC50 of 69.5 ± 4.99 µM (HepG2; cell growth, SRB).
With `Cc1cscc1-c1ccc(Cn2ccnc2)cc1` the Kd was 21.7 ± 2 µM (cyp121; binding).
`CCCCCCCCCCCCNC(=O)N[C@H](C(=O)N[C@H]1/C=C/CCNC(=O)/C=C/[C@H](C)NC1=O)C(C)C` gave an EC50 of 0.074 ± 0.01 µM (U-266 bortezomib-resistant; cell viability, CellTiter-Glo; 24 h).
`NCc1ccc(-c2ncc(OCC3CCNCC3)nc2-c2ccc(-c3ccoc3)cc2)cc1`: “infectious virus reduction” 97% (Zika virus; U87, FLR; 1.2 µM, 48 h).
`C[C@@H](O)[C@@H]1NC(=O)[C@@H]2CSCSC[C@@H](C(=O)N[C@H](CC(=O)N[C@@H](CCCNC(=N)N)C(=O)O)Cc3ccc(O)cc3)NC(=O)[C@H](CCC(N)=O)NC(=O)[C@H](Cc3ccc(O)c(I)c3)NC(=O)[C@H](CCCNC(=N)N)NC(=O)[C@H](CSSC[C@H](NC(=O)CN)C(=O)N2)NC(=O)[C@H](CCCNC(=N)N)NC(=O)[C@@H]2CCCN2C(=O)[C@H](CC(=O)O)NC1=O` gave an inhibition of 58.4% (N-type calcium channel; radioligand binding; 10 µM).
Under “MIC of meropenem”, `C[C@H](CS)C(=O)N[C@@H](Cc1c[nH]c2ccccc12)C(=O)O` is recorded as 32 µg/mL (Klebsiella pneumoniae; IMP-1 producing; 10 µM, together with: meropenem).
`CSCC[C@H](N)C(=O)N[C@@H](C)C(=O)N[C@@H](CC(N)=O)C(=O)N[C@@H](CC(C)C)C(=O)NCC(=O)N[C@@H](Cc1ccc(O)cc1)C(=O)N[C@@H](Cc1c[nH]c2ccccc12)C(=O)N[C@@H](CC(C)C)C(=O)N[C@@H](CC(C)C)C(=O)N[C@@H](C)C(=O)N[C@@H](CC(C)C)C(=O)N[C@@H](Cc1ccccc1)C(=O)N[C@H](C(=O)N[C@H](C(=O)N[C@@H](Cc1ccc(O)cc1)C(=O)N[C@@H](Cc1c[nH]c2ccccc12)C(=O)N[C@H](C(=O)N[C@@H](CC(=O)O)C(=O)N[C@@H](CC(C)C)C(=O)NCC(=O)N[C@@H](CC(C)C)C(=O)N[C@H](C(=O)N[C@@H](CCCCN)C(=O)N[C@@H](CCCCN)C(=O)N[C@@H](CCCNC(=N)N)C(=O)N1CCC[C@H]1C(=O)N[C@@H](CCCCN)C(=O)N1CCC[C@H]1C(=O)O)C(C)C)[C@@H](C)O)[C@@H](C)O)C(C)C` — result for cytokine production: “decreased” (monocyte-derived macrophages; qPCR and ELISA; 3.5 to 15 µM, 1 h pretreatment, together with: LPS).
`C=CC(=O)Nc1cc(-n2c(=O)ccc3cnc4ccc(-c5cn[nH]c5)cc4c32)ccc1C` has an EC50 of 0.011 µM (Ramos; BTK autophosphorylation, inhibitor, western blot, item: BTK Tyr223 phosphorylation; 4 h).
`CO[C@H]1[C@H](O[C@H]([C@H]2O[C@@H](n3ccc(=O)[nH]c3=O)[C@H](O)[C@@H]2O)[C@H](NCCCNC(=O)[C@@H](NC(=O)[C@@H](NC(=O)N[C@H](C(=O)O)C(C)C)[C@@H]2CCNC(=N)N2)[C@@H](OC(=O)CCCCCCCCCCCCNC(=N)N)C(C)C)C(N)=O)O[C@H](CN)[C@H]1O` has an MIC90 of 12.5 ± 0.158 µg/mL (≈ 10.4 µM) (Bacillus subtilis; alamar blue; ATCC 6051).
For `O=C(O)c1ccc(-c2cccc(C(=O)O)c2)cc1`, “MIC of ampicillin” read 256 µg/mL (Escherichia coli; bacterial growth, broth microdilution; expressing OXA-48; 32 µg/mL, together with: ampicillin; MIC of ampicillin).
`NC[C@@H](NC[C@@H]1CCCN1C[C@@H](CO)NC[C@@H](NCCc1ccc(-c2ccccc2)cc1)c1ccccc1)c1ccccc1` — result for “potentiation of amikacin”: 1 fold (Klebsiella pneumoniae; bacterial growth; 24 µM, fold shift of IC90, together with: amikacin).
The IC50 of `Cc1n[nH]c(C)c1S(=O)(=O)Nc1ccc2c[nH]nc2c1` is reported as 15 µM (human IMPDH).
`CCC(c1ccc(-c2ccc(OC(F)(F)F)cc2)cc1)n1ccnc1` (stereo not drawn) gave a Kd of 5 ± 0.49 µM (cyp121; binding).
With `CC1(C)OC2C(COP(=O)(O)Nc3nccs3)OC(n3cnc4c(=O)[nH]c(NC(=O)c5ccccc5)nc43)C2O1` (stereo not drawn) the IC50 was 59.7 ± 4.58 µM (HepG2; cell growth, SRB).
`CC(CCN[C@H](CN[C@H](CO)CN1CCC[C@H]1CN[C@H](CN)c1ccccc1)c1ccccc1)c1ccccc1` (stereo partly drawn): “potentiation of amikacin” 2.7 fold (Klebsiella pneumoniae; bacterial growth; 16 µM, fold shift of IC50, together with: amikacin).
`CC1CCCCCCCCCCCCC(=O)C1` (stereo not drawn) — result for binding affinity: “decreased” (Manis javanica OBP3 Y117F; concentration not given; baseline: wild type).
`NC[C@@H](NC[C@@H]1CCCN1C[C@@H](CO)NC[C@@H](NCCc1ccc(Cl)c(Cl)c1)c1ccccc1)c1ccccc1` — result for “potentiation of amikacin”: 1.1 fold (Klebsiella pneumoniae; bacterial growth; 16 µM, fold shift of IC50, together with: amikacin).
For `C[C@@H](NC(=O)[C@@H](N)Cc1ccc(O)cc1)C(=O)NCC(=O)N[C@@H](Cc1ccccc1)C(N)=O`, the IC50 was 0.04 ± 0.013 µM (muscle contraction, inhibitor; guinea pig ileum; electrically stimulated).
